Measured values from different studies.
Lines come from different studies, so protocols differ.
Medium: plasma

O=C(NCCCCc1ccccc1)n1c(=O)oc2cc(-c3ccc(F)cc3)ccc21  Cmax (CD-1 mouse; intraperitoneal, 10 mg/kg): 1770 ng/mL
C[C@@H](COc1ccc(F)cc1)C(=O)n1nc(N)c2ccc(CO)cc21  Cmax (male C57BL/6 mouse; oral, 10 mg/kg): 3.4 µM
N#Cc1cnc2cc(OCC3CCNCC3)c(F)cc2c1Nc1cc(F)c(OCc2cccc(Cl)n2)cc1Cl  Cmax (female CD-1 mouse; oral, 20 mg/kg): 384 ng/mL
CN1CCc2cc(Nc3ncc(C(F)(F)F)c(NCc4cc[nH]n4)n3)ccc2C1  Cmax (C57BL/6 mouse; oral, 50 mg/kg, single dose): 1360 ng/mL
CC(=O)N[C@@H](Cc1ccc(O)cc1)CN(CC(=O)N[C@@H](CCCCN)CN(CC(=O)N[C@@H](Cc1ccccc1)CN(CC(=O)N[C@H]1CCCCNc2c(F)c(F)c(c(F)c2F)S(=O)(=O)c2c(F)c(F)c(c(F)c2F)NCCCC[C@@H](CN(CC(=O)N[C@@H](C)CN(CC(N)=O)S(C)(=O)=O)S(C)(=O)=O)NC(=O)CN(S(=O)(=O)CC(C)C)C[C@H](CC(C)C)NC(=O)CN(S(=O)(=O)CCN)C1)S(=O)(=O)CC(C)C)S(=O)(=O)CCN)S(C)(=O)=O  Cmax (C57BL/6 mouse; intraperitoneal, 50 mg/kg): 38900 ng/mL
CCCCCCCCCCCCCCCC(=O)OCC(CSC[C@H](N)C(=O)NCC(=O)N[C@@H](CC(=O)O)C(=O)N1CCC[C@H]1C(=O)N[C@@H](CCCCN)C(=O)N[C@@H](Cc1c[nH]cn1)C(=O)N1CCC[C@H]1C(=O)N[C@@H](CCCCN)C(=O)N[C@@H](CO)C(=O)N[C@@H](Cc1ccccc1)C(=O)O)OC(=O)CCCCCCCCCCCCCCC (stereo partly drawn)  Cmax (mouse; subcutaneous, 0.4 mg/kg): 115 ng/mL
O=C1NC(=O)C(C2CCOc3cc(Oc4ccc(C(F)(F)F)cc4Cl)ccc32)S1 (stereo not drawn)  Cmax (mouse; oral, 30 mg/kg): 22 µM
COc1cccc2c1C(=O)c1c(O)c3c(c(O)c1C2=O)C[C@@](O)(C(=O)CO)C[C@@H]3O[C@H]1C[C@H](N)[C@@H](O)[C@H](C)O1  Cmax (male Kunming mouse; intravenous, 5 mg/kg): 22100 ng/mL
CCS(=O)(=O)c1ccccc1C(=O)N1CCN(c2nc3ccc(F)cc3s2)C[C@@H]1C  Cmax (mouse; oral, 3 mg/kg): 613 ng/mL
CCC(CC)CNC(=N)NC(=N)NCCCCCCNC(=N)NC(=N)NCC(CC)CC  Cmax (female BALB/c mouse; intraperitoneal, 5 mg/kg, single dose): 540 ng/mL
NS(=O)(=O)NCC(F)(F)c1ccccc1F  Cmax (mouse; oral, 5 mg/kg): 3130 ng/mL
CN(C)CCNC(=O)/C=C/C(Cc1ccccc1)Nc1ccnc2cc(Cl)ccc12 (stereo not drawn)  Cmax (CD-1 mouse; oral, 5 mg/kg, single dose): 63.8 ng/mL
O=C1OC2(c3ccccc31)c1cc(I)c(O)c(I)c1Oc1c2cc(I)c(O)c1I  Cmax (female C57BL/6 mouse; oral, 100 mg/kg): 325 ng/mL
COc1ccc(OC)c(C(=Cc2ccc(O)c(OC)c2)C(=O)NCCc2ccc(O)cc2)c1  Cmax (Kunming mouse; oral, 50 mg/kg): ~361 ng/mL
CCC/C(=C\C1=C(OC)C(=O)c2ccccc2C1=O)C(=O)NOC  Cmax (mouse; oral, 25 mg/kg): 476 ng/mL
CC(C)n1ncc2c(C(=O)NCCN(C)C)cc(C3CC3)nc21  Cmax (female BALB/c mouse; intraperitoneal, 50 mg/kg): 916 ng/mL
CCC(=C(c1ccc(Cl)cc1)c1ccc(OCCN2CCOCC2)cc1)c1ccc(OC)cc1  Cmax (female C57BL/6 mouse; oral, 400 mg/kg, single dose): 3540 ng/mL
Cc1cc(O)cc(O)c1C(=O)c1c2c3c(c(O)cc(C)c3oc1=O)C(=O)c1c(O)cc(O)cc1-2  Cmax (male Kunming mouse; intraperitoneal, 30 mg/kg): 39500 ng/mL

Repeated from above:
O=C1OC2(c3ccccc31)c1cc(I)c(O)c(I)c1Oc1c2cc(I)c(O)c1I  Cmax (female C57BL/6 mouse; oral, 100 mg/kg): 325 ng/mL
COc1ccc(OC)c(C(=Cc2ccc(O)c(OC)c2)C(=O)NCCc2ccc(O)cc2)c1  Cmax (Kunming mouse; oral, 50 mg/kg): ~361 ng/mL
